Measurements of several laboratories.
Parts stem from different laboratories: compare values within a part only. Positions count from the first letter of the parent shown.

Block 1
Target: RNA binding protein fox-1 homolog 2, RRM domain, GST-SBP tag (RBFOX2, Homo sapiens, UniProt O43251-10, residues 100-194)
Technique: RNA Bind-n-Seq
Molecule type: RNA
Medium: in vitro
Concentration: 365 nM
Notes: natural RNA segment, single round, ends assumed
Relative to: no-protein control
Direction: higher = stronger binding
All sequences stand within: GGGAGUUCUACAGUCCGACGAUC … UGGAAUUCUCGGGUGCCAA
Construct (chain): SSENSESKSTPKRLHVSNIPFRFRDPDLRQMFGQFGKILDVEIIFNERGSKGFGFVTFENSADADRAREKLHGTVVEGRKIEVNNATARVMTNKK
Sequence	RBNS enrichment (R)
CCACUUCUCACCCUUCUUUCCUCCUGACCUUGGUCAGCAGUGAUGACCUCCAACUCUCACCCACCCCCUCUACCAUCACCUCUAACCAGGCAAGCCAGGGUGGGAGAGCA	0.369
GGGAAAUCACAGUUCAUCACUUGAGCAUCAUAGCCUUACCCCUCGCCCCUGGUCCUACUCCUGCCUCGGUGAUAGAAGGAGGCAGGGUAAGGGUAUGCCCCUGGCCACUA	0.298
AUCCUCUUACUCAUUUUAAGACGUAGGAAACUCAAUAUUCUUCUCUAACCAUAUACGAUAGGGCUCUUCGCUUUUAAUGAUAUCUGGGAUUUCUGUGGAACUUGGCAAAU	0.329
CAUUUAUACAAGGGCUUGUGUGCCAAUGUUCCUACCAUACCAGCAACUCUUUCUAUCCCGUGAAUAAAAGCAUCCCUUGGCUGGGAUAUAGGGCCACAUCAACCUGAGUU	1.07
CAGCUGAAAAUGAAGGUAAUUAAAACCAUGGAGGCGAUCAGCGAGGUUCUCCAGGACCUUAGGUUUGAUGCGGAAUCUGCCGAGUGAUGGCGGCUCCCCAGGGAUGCGCC	0.472
ACUUGCAGUGUAAAAGGAGGAAAGGGGUGGAAAAAACCGAAUUUCUGCAUUUAACUACAAAAAAAGUUUAUGUUUAGUUUGGUAGAGGUGUUAUGUAUAAUGCUUUGUUA	0.779
ACAUCCCUGCUUUUGACUGAACACUGCACAGAAGCCCCUGAAAUAGGGCCUCUCCCUCGUUGUCAUGUGCACUUUCCGUCUGAGGGAACUGCAGCUGCUGGAAGGCCAGC	0.356
UUUUUGAAUGCUUCCAAGACUUAUCAUGAAAACUGUCAAUGGAUAAUCAUUUCCUGCUGACUUUGCACGCCAAGGAAUGCUACUAGGGAUUGUUUCCGUUUUUGUUUGUU	2.14
UUGCCAAAAUACCUUCUGAACUAAGUUGCGUUGUGCUGAGAACACCUAAGCACUAAACUCUCUUGAGAGACUUCUGUUGCUAAGAAGACCGCAGCUUCUGGAGCCAGGGG	0.411
CUGCCACCAGGCUCAGCCCACCCCUCCACCUCUCUCUCGAUUUCUCUCUCUCCCCCUCAGCAUCUUCCCGCUGAGAGUGGUGGGGAAGAGCCUUGUCUUCUUAGCUGUCA	1.47
AUUUUUAAAGCUGCUUCCUGUUUGUUGAGGGUCUGUAUUCAUAGACCUUGACUGGAAUAUGUAAGACUGUGCAAAAAAAAAAAAAAAAUUUAUGUGUAUUCUUAUUCAAA	1.11
CUUUAUGCCAAAUGUCUUGCAGAUGUUAUUUUUAAACUUAACUGAAUUUUUACAAAUAUAAAAAGGAAAAAGUAUAUUAGUGUAAUUUGUUUAGGAAUAGCUACAUACCG	1.2

Block 2
Target: TAR DNA-binding protein 43, full length, His tag (TARDBP, Homo sapiens, UniProt Q13148, residues 1-414)
Technique: RNA Bind-n-Seq
Molecule type: RNA
Medium: in vitro
Concentration: 20 nM
Notes: 6-mer, flanks averaged, single round
Together with: 150 mM LiCl
Relative to: input library
Direction: higher = stronger binding
Sequence	6-mer enrichment (R)
GUUCAA	0.888
AACGAG	0.896
UUAACA	0.874
GCUCGA	0.836
GUAUAU	1.06
UGCCAC	0.944
GCGGUG	1.26
GCAACA	0.866
GCUCGU	0.876
UUUUUG	1.59
ACUAAG	0.828
ACGGAC	0.946
UAAACU	0.874
ACGGCC	0.879
CAGGGU	1.03
GUUUGA	1.21
CCCCGC	1.2
CCACAC	0.926
AUGGUU	1.12
CGAUUC	0.829
UCUUCC	0.901
GAUAGU	0.96
AUUCCA	0.901
AUCGGG	0.953
UCGUAG	0.898

Block 3
Target: Ras GTPase-activating protein-binding protein 1, RRM domain (G3BP1, Homo sapiens, UniProt Q13283)
Sequence of UniProt Q13283 (whole entry, looked up): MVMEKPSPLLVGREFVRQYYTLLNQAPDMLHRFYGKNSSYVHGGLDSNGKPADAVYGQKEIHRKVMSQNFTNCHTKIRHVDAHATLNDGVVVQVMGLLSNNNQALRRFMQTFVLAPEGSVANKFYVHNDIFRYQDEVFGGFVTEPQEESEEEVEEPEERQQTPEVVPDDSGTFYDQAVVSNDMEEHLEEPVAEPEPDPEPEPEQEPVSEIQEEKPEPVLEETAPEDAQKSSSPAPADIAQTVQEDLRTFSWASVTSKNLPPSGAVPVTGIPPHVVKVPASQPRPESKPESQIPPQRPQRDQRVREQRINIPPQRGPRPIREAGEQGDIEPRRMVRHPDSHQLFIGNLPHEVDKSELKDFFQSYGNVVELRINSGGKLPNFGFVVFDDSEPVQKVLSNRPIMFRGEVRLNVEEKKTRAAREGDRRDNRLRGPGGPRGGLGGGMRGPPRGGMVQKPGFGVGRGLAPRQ
Technique: RNA Bind-n-Seq
Molecule type: RNA
Medium: in vitro
Concentration: 1 µM
Notes: whole 134-nt RNA, ends assumed
Together with: 150 mM KCl
Relative to: input library
Direction: higher = stronger binding
All sequences stand within: GGGAGUUCUACAGUCCGACGAUC … UGGAAUUCUCGGGUGUCAAGG
Sequence	log2 enrichment
CAAGUCCUGUGCUACACAUCGUAUGUACCGAAUCGGGUUUGGGUUUGGGGUUUGGAAAGUAUUAUGUUACGCCGUUCGGAUCUGCACUUC	-0.422
CCUGUGCUACACAUCGUAUGUACCGAAUCGGGGAAAGGGGUUUUUUUGGGGAAAAAGGGGAAAGUAUUAUGUUACGCCGUUCGGAUCUGC	0.522
CUCAAGUCCUGUGCUACACAUCGUAUGUACCGAAUCGGUUUUUGGUUUGGUGGAAAGUAUUAUGUUACGCCGUUCGGAUCUGCACUUCCA	-0.326
UUGGAUGAAGAUGGCAAAGUCCUGACCCCGGAGGAGCUGCUCUACCGGGUAAGGGGGCCUCCUCUGCCAGACCCUAGAGACCUCUCUGGG	-0.715
GCAGGAAGUAAAAACAAAUGGAAAUGCUUCGGAUAGUGGCAGGGGUGGGGGUUGCUAAGGUAAGGGUGGGAUGGGAGUGGGUAAAGAGUU	1.24
AAGUCCUGUGCUACACAUCGUAUGUACCGAAUCGGGGAGGGGAAAGGGGUUUGGGGAAAGUAUUAUGUUACGCCGUUCGGAUCUGCACUU	1.18
AAGUCCUGUGCUACACAUCGUAUGUACCGAAUCGGCCCCGGGCCCCGGGCCCCGGGAAAGUAUUAUGUUACGCCGUUCGGAUCUGCACUU	-0.815
GUCCUGUGCUACACAUCGUAUGUACCGAAUCGGGGUGGGGUUUUUUUGGGGAAAGGGGAAAGUAUUAUGUUACGCCGUUCGGAUCUGCAC	0.937
UUCUCCUGCCCCGAAGCUCGCUGUGCGUGUGCGUGUGUGUGUCCCUCCGCCAACGCCGCCACCUCAGCCCGGCAAAUGAACUCCGUCCGA	-0.175
AGUCCUGUGCUACACAUCGUAUGUACCGAAUCGGAAAGGUUUUUUUGGAAAAAAAGGAAAGUAUUAUGUUACGCCGUUCGGAUCUGCACU	-0.347
AAGUCCUGUGCUACACAUCGUAUGUACCGAAUCGGCCCCGGGGCCCCGGCCCCGGGGAAAGUAUUAUGUUACGCCGUUCGGAUCUGCACU	-1.12
UGGCCCUGGUGGCAUGCGGGGAGGAAGAGGUGGCCUCAUGGAUCGAGGUGGUCCCGGUGGAAUGUUCAGAGGUGGCCGUGGUGGAGACAG	1.19
UGGGAGAUGGAUUUUGUUUAUUUUUUUAGCUCAUUUCCAGGGGUGGGAAUUUUUUUUUAAUAUGUGUCAUGAAUAAAGUUGUUUUUGAAA	1.81
UGUGCUACACAUCGUAUGUACCGAAUCGGGUUUUUUUGGGGUUUUUUUGGGGUUUUUUUGGGAAAGUAUUAUGUUACGCCGUUCGGAUCU	-0.0982

Block 4
Target: CCND1, cyclin fold, Cln2 fusion (human)
Technique: yeast growth competition, sequencing
Medium: yeast
Notes: weak parent motif
Relative to: not given
Direction: higher = stronger binding
Starting sequence: CDKN1B docking peptide (human); PSACRNLFGPVDH; partner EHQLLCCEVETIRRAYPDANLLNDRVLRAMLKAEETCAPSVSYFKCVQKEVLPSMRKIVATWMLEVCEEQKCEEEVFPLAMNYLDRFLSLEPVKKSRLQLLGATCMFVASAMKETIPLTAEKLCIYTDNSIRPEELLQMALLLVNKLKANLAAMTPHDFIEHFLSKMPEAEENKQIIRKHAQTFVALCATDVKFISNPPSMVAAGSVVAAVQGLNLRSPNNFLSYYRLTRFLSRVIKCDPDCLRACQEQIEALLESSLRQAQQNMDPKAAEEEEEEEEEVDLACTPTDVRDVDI
Substitution	normalised enrichment score
R5K	0.167
C4N	0.588
P10W	0.588
C4I	0.545
P1E	0.86
C4R	0.562
N6H	0.233
P1M	0.705
A3M	0.343
S2D	0.733
S2A	0.684
N6L	1.22
D12E	0.527
D12K	0.536
F8L	0.00731
L7S	0.0729
S2C	0.369
F8T	0.173
R5G	0.273
G9D	0.731
C4A	0.899
L7A	-0.00693
A3C	0.402
L7K	0.00267
H13P	0.73

Block 5
Target: Phosphate system positive regulatory protein PHO4, full length, GST-tagged (PHO4, Saccharomyces cerevisiae, UniProt P07270, residues 1-312)
Technique: competition protein-binding microarray
Molecule type: double-stranded DNA, one strand shown
Medium: in vitro
Concentration: 2 µM
Notes: whole 60-bp probe, lowest competitor level
Together with: Cbf1 competitor, 0.05 µM
Direction: higher = stronger binding
All sequences stand within: … GTCTTGATTCGCTTGACGCTGCTG
Target sequence (chain): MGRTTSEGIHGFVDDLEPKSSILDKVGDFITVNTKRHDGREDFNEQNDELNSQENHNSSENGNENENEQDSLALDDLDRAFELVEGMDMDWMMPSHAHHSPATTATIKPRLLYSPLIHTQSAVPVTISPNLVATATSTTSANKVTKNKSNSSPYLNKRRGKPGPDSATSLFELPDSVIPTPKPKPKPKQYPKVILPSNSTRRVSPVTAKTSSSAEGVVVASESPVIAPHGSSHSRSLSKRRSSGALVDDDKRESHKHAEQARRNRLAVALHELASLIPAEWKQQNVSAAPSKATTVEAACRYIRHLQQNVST
Sequence	fluorescence intensity
TGCGCAACAACTTGACGAGTGGGTGTATGTCTAGAA	4890 a.u.
GACCGTCAAAGCGTCCACATGAGATCCAATGACACC	5720 a.u.
TGCAGGGAGAGGTCACACGAGGACGCAGGGATGCTG	10600 a.u.
AAAGCGGTAATTTGGTTGGTGGGTGCAGATATCTAT	4490 a.u.
TATCTTGTCATCCACCATGTGTCTTAGTCGTTGATA	9080 a.u.
CTTCTGTAAATTTGTCCGGTGGGTGGACGCGCCCCG	3950 a.u.
TTTAGTCGATACCAACACGTGGAACAATACTCAAAT	19800 a.u.
AAATTACTAAGTTGTGAGGTGGGTGACGCCGTATGA	4430 a.u.
GTCTTGTCTCATTGAAATGTGGGTGTCCCCACTTCA	6050 a.u.
CGAAGTTATTTGTCTAGCATGATAAGGTACAATGCC	4100 a.u.
CTCGTCTGACGCGGAAACGTGCGGAAAAAAATCTCC	13700 a.u.
CTAACGAAGGTTTGTGCAGTGGGTGACAAGCCAAGT	5010 a.u.
TGCGCAACAACTTGAAATGTGGGTGTATGTCTAGAA	6400 a.u.
AAGAAGCTAATTTTGCACGTAAACAACAATCTATAC	5060 a.u.
CGCCGGAAGCGGTGCCTCGTGGCTTGGGATCTCTCC	11300 a.u.
CCCTTGTCATTTTCCCAGGTGACGCTGAATTGTATG	5260 a.u.
CATACCCAACCTTGCGGTGTGGGTGAAGATATTTGT	5300 a.u.
AAATTACTAAGTTGACTTGTGGGTGACGCCGTATGA	4420 a.u.
TGAAAGGTTCTTTGACACATGTAAAGCTCCCTAAGT	6520 a.u.
TTCGAGACGAAGCATCACCTGATGGTAAACTATTGT	3850 a.u.
TGTATCCTATACAATCACGGGCGACGGACAAGACCC	4860 a.u.
AAAGGCCACAAGTTGCGCATGCCTTTTTGCAATGTT	8460 a.u.
CTTTCCCGATCTTGACAAGTGGGTGTAGCACATTTG	4910 a.u.
GTCTTGTCTCATTGTTGTGTGGGTGTCCCCACTTCA	5520 a.u.
GCGGTCGGTAAATTTTTCGTGGGTATCTTTGAATCT	3400 a.u.

For quick reference, copied from above (block 3):
Sequence	log2 enrichment
CAAGUCCUGUGCUACACAUCGUAUGUACCGAAUCGGGUUUGGGUUUGGGGUUUGGAAAGUAUUAUGUUACGCCGUUCGGAUCUGCACUUC	-0.422
AAGUCCUGUGCUACACAUCGUAUGUACCGAAUCGGCCCCGGGCCCCGGGCCCCGGGAAAGUAUUAUGUUACGCCGUUCGGAUCUGCACUU	-0.815
UGUGCUACACAUCGUAUGUACCGAAUCGGGUUUUUUUGGGGUUUUUUUGGGGUUUUUUUGGGAAAGUAUUAUGUUACGCCGUUCGGAUCU	-0.0982
UUGGAUGAAGAUGGCAAAGUCCUGACCCCGGAGGAGCUGCUCUACCGGGUAAGGGGGCCUCCUCUGCCAGACCCUAGAGACCUCUCUGGG	-0.715
UGGGAGAUGGAUUUUGUUUAUUUUUUUAGCUCAUUUCCAGGGGUGGGAAUUUUUUUUUAAUAUGUGUCAUGAAUAAAGUUGUUUUUGAAA	1.81
UGGCCCUGGUGGCAUGCGGGGAGGAAGAGGUGGCCUCAUGGAUCGAGGUGGUCCCGGUGGAAUGUUCAGAGGUGGCCGUGGUGGAGACAG	1.19
GUCCUGUGCUACACAUCGUAUGUACCGAAUCGGGGUGGGGUUUUUUUGGGGAAAGGGGAAAGUAUUAUGUUACGCCGUUCGGAUCUGCAC	0.937
GCAGGAAGUAAAAACAAAUGGAAAUGCUUCGGAUAGUGGCAGGGGUGGGGGUUGCUAAGGUAAGGGUGGGAUGGGAGUGGGUAAAGAGUU	1.24
CUCAAGUCCUGUGCUACACAUCGUAUGUACCGAAUCGGUUUUUGGUUUGGUGGAAAGUAUUAUGUUACGCCGUUCGGAUCUGCACUUCCA	-0.326
AAGUCCUGUGCUACACAUCGUAUGUACCGAAUCGGCCCCGGGGCCCCGGCCCCGGGGAAAGUAUUAUGUUACGCCGUUCGGAUCUGCACU	-1.12
AAGUCCUGUGCUACACAUCGUAUGUACCGAAUCGGGGAGGGGAAAGGGGUUUGGGGAAAGUAUUAUGUUACGCCGUUCGGAUCUGCACUU	1.18
